Measured values of several laboratories.
Lines come from different studies, so protocols differ. “And” joins repeats or separate records; there may be more than shown. ± gives the spread as reported.

Structure (SMILES) = CN1CCN(S(=O)(=O)c2cc([N+](=O)[O-])ccc2N(CCOS(C)(=O)=O)CCOS(C)(=O)=O)CC1; test system = NSG mice, sample CB PDX; setting = intraperitoneal, 25 mg/kg weekly x3; endpoint = event-free survival; value = > 381 days
Structure (SMILES) = Clc1cc2c(cc1Cl)Oc1cc(Cl)c(Cl)cc1O2; test = RNA-Seq, measured: Alox5ap; test system = female Sprague-Dawley rat, liver; setting = dose not given; endpoint = mRNA level; value = no effect
Structure (SMILES) = CCCCC1(CCCC)CN(c2ccccc2)c2cc(SC)c(OCC(=O)N[C@@H](C(=O)NCC(=O)O)c3ccccc3)cc2S(=O)(=O)C1; test system = human; setting = 5 mg once daily, 120 h; endpoint = serum HDL cholesterol; value = 46.5 mg/dL
Structure (SMILES) = CCOC(=O)c1ncn2c1CN(C)C(=O)c1cc(F)ccc1-2; test = food-maintained responding; test system = rhesus monkey; setting = intramuscular, acute dependence model, with: midazolam pretreatment 30 min; how to read = relative to: midazolam alone; endpoint = minimum effective dose; value = 1 mg/kg
Structure (SMILES) = Cc1nc(Nc2ccc(CC(=O)O)cc2)nc(Nc2ccc(F)c(C(F)(F)F)c2)c1C; test system = mice, chronic ethanol plus binge; setting = intraperitoneal, 0.3 mg/kg daily, ethanol diet 4 weeks, dosed last two; how to read = relative to: vehicle; endpoint = serum total bilirubin; value = no effect
Structure (SMILES) = CC(C)C1CCC(N2CCC(N3C(=O)/C(=N\O)c4ccccc43)CC2)CC1 (centres unmarked); test system = conscious Sprague-Dawley rat; setting = intravenous bolus, 100 nmol/kg; endpoint = urine flow rate; value = increased
Structure (SMILES) = CC(=O)c1c(C)c2cnc(Nc3ccc(C4CCN(CCS(C)(=O)=O)CC4)cn3)nc2n(C2CCCC2)c1=O; test = RECIST v1.1; test system = HR+/HER2- advanced breast cancer patients; setting = dose not given, phase Ib all arms pooled; endpoint = best response partial response; value = 39.5%
Structure (SMILES) = Nc1ncnc2c1ncn2[C@@H]1O[C@H](COP(=O)(O)O)[C@@H](OP(=O)(O)O)[C@H]1O; test = binding, equilibrium dialysis LC-MS; setting = 5 µM, thermostabilized A2AR-BRIL construct; how to read = relative to: no-protein control, direction not given; endpoint = z-scored log2 fold change; value = -0.167
Structure (SMILES) = CC[C@H](C)[C@@H]1NC(=O)[C@@H]2CCCN2C(=O)[C@H](CC(C)C)NC(=O)[C@H](CC(C)C)NC(=O)CNC(=O)[C@@H](NC(=O)[C@@H](NC(=O)[C@H](CC(=O)O)NC(=O)CNC(=O)[C@@H](NC(=O)[C@H](C)NC(=O)CNC(=O)[C@H](CCCCN)NC(=O)[C@H](CC(C)C)NC(=O)[C@H](CC(C)C)NC(=O)[C@H](CCCCN)NC(=O)CNC(=O)[C@@H](NC(=O)[C@@H](N)CC(C)C)C(C)C)C(C)C)C(C)C)CSSC[C@@H](C(=O)O)NC1=O; test = RNA-seq, measured: Zfp516 mRNA; test system = mouse traumatic brain injury, frontal cortex and hippocampus; setting = dose not given; how to read = relative to: TBI plus compound vs TBI; endpoint = log2 fold change; value = -0.823
Structure (SMILES) = CC[C@H](C)C[C@H](C)CCCCCCCCC(=O)N[C@H]1C[C@@H](O)[C@@H](NCCN)NC(=O)[C@@H]2[C@@H](O)CCN2C(=O)[C@H]([C@H](O)CCN)NC(=O)[C@H]([C@H](O)[C@@H](O)c2ccc(O)cc2)NC(=O)[C@@H]2C[C@@H](O)CN2C(=O)[C@H]([C@@H](C)O)NC1=O; test = calcein leakage; test system = DOPC/DOPG/CHOL liposomes; setting = concentration not given, with: 40 mM CaCl2; endpoint = maximum fusion; value = 1 ± 1%
Structure (SMILES) = CCCc1nn(C)c2c(=O)[nH]c(-c3cc(S(=O)(=O)N4CCN(C)CC4)ccc3OCC)nc12; test system = human patients on drug, serum or plasma; setting = dose not given, on:off matching 1:5; how to read = relative to: off-drug patients, 5.91 mg/dL; endpoint = mean serum uric acid; value = 6.97 mg/dL
Structure (SMILES) = CS(=O)(=O)c1ccc(-c2nnc(/C=C/c3nnc(-c4ccc(C#N)cc4)o3)n2-c2ccccc2Cl)nc1; test = RNA-seq GSEA, measured: HALLMARK_BILE_ACID_METABOLISM; test system = organoids, small intestinal, Apc Q1405X, mouse; setting = dose not given, 3 days, wild-type organoids; how to read = relative to: DMSO, direction not given; endpoint = normalized enrichment score; value = 1.89
Structure (SMILES) = [131I-].[Na+]; test system = paediatric patients, differentiated thyroid carcinoma, intermediate risk; setting = dose not given, retrospective; endpoint = patients with indeterminate response or progression; value = 16.3%
Structure (SMILES) = C[C@H]1O[C@@H](O[C@H]2CC[C@@]3(C)[C@@H](CC[C@]4(C)[C@@H]3C=C[C@]35OC[C@@]6(CCC(C)(C)C[C@H]63)[C@@H](O)C[C@]54C)[C@]2(C)CO)[C@H](O)[C@@H](O[C@@H]2O[C@H](CO)[C@@H](O)[C@H](O)[C@H]2O)[C@H]1O; test system = Mus musculus, chronic-plus-binge ethanol-fed, AAV8-TBG-Null vector; setting = oral, high dose, during administration; endpoint = body weight change; value = -0.5 g and -0.7 g and -1.6 g and -1.4 g and -1.3 g and 0 g
Structure (SMILES) = C=CC(=O)Nc1cc(Nc2ncc(Cl)c(Nc3ccccc3C(=O)C(=O)N(C)C)n2)c(OC)cc1N1CCN(C)CC1; test = RECIST v1.1 best response; test system = human EGFR T790M NSCLC; setting = oral, 100 mg/day, per-protocol set; endpoint = patients with stable disease; value = 0%
Structure (SMILES) = COc1cccc([C@H](O)C2CCN(CCc3ccc(F)cc3)CC2)c1OC; test = antagonist, drug discrimination; test system = rhesus monkey trained on DOM; setting = 0.032 mg/kg, with: DOM 0.32 mg/kg; endpoint = DOM-lever responding; value = < 1%
Structure (SMILES) = CCCCCCCCCC(=O)N[C@@H](Cc1c[nH]c2ccccc12)C(=O)N[C@H](CC(N)=O)C(=O)N[C@@H](CC(=O)O)C(=O)N[C@@H]1C(=O)NCC(=O)N[C@@H](CCCN)C(=O)N[C@@H](CC(=O)O)C(=O)N[C@H](C)C(=O)N[C@@H](CC(=O)O)C(=O)NCC(=O)N[C@H](CO)C(=O)N[C@@H]([C@H](C)CC(=O)O)C(=O)N[C@@H](CC(=O)c2ccccc2N)C(=O)O[C@@H]1C; test = calcein leakage; test system = DOPC/DOPG/CHOL liposomes; setting = concentration not given, with: 40 mM CaCl2; endpoint = maximum fusion; value = 91 ± 4%
Structure (SMILES) = C[C@]1(CO)Cc2ncn(-c3ccc(C#N)c(Cl)c3)c2C(=O)O1; test = aldosterone synthesis, inhibitor, measured: sodium; test system = healthy Japanese adults, urine; setting = 80 mg, 0-24 h after first dose, multiple rising dose; endpoint = urinary excretion; value = 116 mmol
Structure (SMILES) = Cc1cn(-c2cc(NC(=O)c3ccc(C)c(Nc4nccc(-c5cccnc5)n4)c3)cc(C(F)(F)F)c2)cn1; test system = human patients; setting = dose not given, 12 to 6 months, within treated group, unit not given; how to read = relative to: baseline; endpoint = ADAS-Cog maze time change; value = 3.68
Structure (SMILES) = C[C@H](NC(=O)c1c(C(F)F)nn(C)c1Oc1cccc(C(F)(F)F)c1)c1ccc(C(=O)O)cc1; test system = human, advanced tumours; setting = 500 mg; endpoint = median progression-free survival; value = 1.3 months

A few entries again:
Structure (SMILES) = Nc1ncnc2c1ncn2[C@@H]1O[C@H](COP(=O)(O)O)[C@@H](OP(=O)(O)O)[C@H]1O; test = binding, equilibrium dialysis LC-MS; setting = 5 µM, thermostabilized A2AR-BRIL construct; how to read = relative to: no-protein control, direction not given; endpoint = z-scored log2 fold change; value = -0.167
Structure (SMILES) = COc1cccc([C@H](O)C2CCN(CCc3ccc(F)cc3)CC2)c1OC; test = antagonist, drug discrimination; test system = rhesus monkey trained on DOM; setting = 0.032 mg/kg, with: DOM 0.32 mg/kg; endpoint = DOM-lever responding; value = < 1%
Structure (SMILES) = CCOC(=O)c1ncn2c1CN(C)C(=O)c1cc(F)ccc1-2; test = food-maintained responding; test system = rhesus monkey; setting = intramuscular, acute dependence model, with: midazolam pretreatment 30 min; how to read = relative to: midazolam alone; endpoint = minimum effective dose; value = 1 mg/kg
